Results gathered from unrelated publications.
Values joined by “and” are separate records of one study, mostly repeats; a detail may differ.
Target: 3',5'-cyclic-AMP phosphodiesterase 4D (PDE4D, Homo sapiens, UniProt Q08499)

`Cc1cc(-c2ccc3ccccc3c2)nnc1NCCN1CCN(C)CC1`: inhibition “negative” (enzyme activity; concentration not given).
`CCc1nnc(-c2c(OC)cc(-c3cnc4cc(-c5cnn(C)c5)ccn34)cc2OC)o1`: “inhibition of specific binding” 64% (10 µM).
`CC(C)=CCc1c(O)ccc(-c2coc3cc(O)cc(O)c3c2=O)c1O` gave an inhibition of 96.8% (enzyme activity, inhibitor, radiometric; 50 µM).
The inhibition of `CS(C)(=O)=Nc1ccc(-c2ccc(-c3nc4cc(O[C@@H]5CO[C@H]6[C@@H]5OC[C@H]6O)[nH]c4cc3F)cc2)cc1` is reported as 35% (enzyme activity; 10 µM; reference: control).
The inhibition of `Cc1cc(O)c(C(=O)CCC(C)C)c(=O)o1` is reported as 13.5% (enzyme activity, inhibitor, radiometric; 50 µM).
For `O=C(O)c1ccc(-c2nc(-c3ccccc3Cl)c3sccn23)cc1`, the specific binding was 85.8% and 80.8% (radioligand binding, safety screen panel; 10 µM; reference: control).
For `CCN(CC)CCOc1ccc(-c2nnn(Cc3ccc(OC)cc3)c2N)cc1`, the inhibition was 38.5% (enzyme activity; 10 µM).
`CCOC(=O)[C@](CC)(CCCSCCOCCOCCNC(=O)c1ccc(-c2c3ccc(=N)c(S(=O)(=O)O)c-3oc3c(S(=O)(=O)O)c(N)ccc23)c(C(=O)O)c1)NC(=O)c1ccc(C2CC2)c(Cc2ccc(F)cc2)n1` gave an inhibition of 32% (enzyme activity, inhibitor; 10 µM).
With `N#C[C@H](O[C@@H]1O[C@H](CO[C@@H]2O[C@H](CO)[C@@H](O)[C@H](O)[C@H]2O)[C@@H](O)[C@H](O)[C@H]1O)c1ccccc1` the inhibition was 10.4% (enzyme activity, inhibitor, radiometric; 50 µM).
`C[C@@H]1COCCN1c1nc(NCc2cccnc2C(F)(F)F)c2cccnc2n1` gave an IC50 of 9.24 µM (binding; CEREP panel).
`N[C@H](C(=O)N1CCCC1)C1CCN(c2nccc3c(-c4ncc(Cl)cc4Cl)cccc23)CC1` has an inhibition of -3% (enzyme activity, inhibitor; 10 µM).
With `C/C(=N\OCCCN1CCCCC1)c1ccc(C(F)(F)F)cc1` the inhibition was 4.44% (antagonist, FP; 10 µM).
The inhibition of `Cc1cc(Nc2nc(C[C@@]3(C(=O)O)CCN(Cc4cccc(Cl)c4F)[C@H](C)C3)cc(C)c2F)[nH]n1` is reported as -10.9% (enzyme activity, inhibitor; 10 µM).
With `COc1c(/C=C/C(=O)c2ccc(O)cc2)ccc(O)c1O` the inhibition was 87.1% (enzyme activity, inhibitor, radiometric; 50 µM).
`CCCO[C@H]1[C@H](O)[C@@H](N)[C@@H](O[C@H]2[C@H](O[C@@H]3O[C@H](CO)[C@@H](O[C@H]4O[C@@H](CN)[C@@H](O)[C@H](O)[C@H]4N)[C@H]3O)[C@@H](O)[C@H](N)C[C@@H]2N)O[C@@H]1CO` has a remaining signal of -1% (cell-free assay; 10 µM).
